Published values collected from several papers.
Compare with care: the assays were run in different laboratories. ± marks the error that the study gave.
Tumor necrosis factor receptor superfamily member 9/Nectin-4: Tumor necrosis factor receptor superfamily member 9/Nectin-4 (Homo sapiens, UniProt Q07011+Q96NY8)
UniProt Q07011, sequence (whole entry, looked up): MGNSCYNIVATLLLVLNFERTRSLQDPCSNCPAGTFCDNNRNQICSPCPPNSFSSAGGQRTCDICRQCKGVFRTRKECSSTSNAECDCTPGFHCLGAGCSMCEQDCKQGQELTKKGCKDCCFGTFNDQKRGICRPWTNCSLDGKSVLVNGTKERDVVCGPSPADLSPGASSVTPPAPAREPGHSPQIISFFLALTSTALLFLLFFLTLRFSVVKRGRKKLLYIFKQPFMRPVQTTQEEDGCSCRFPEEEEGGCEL
UniProt Q96NY8, sequence (whole entry, looked up): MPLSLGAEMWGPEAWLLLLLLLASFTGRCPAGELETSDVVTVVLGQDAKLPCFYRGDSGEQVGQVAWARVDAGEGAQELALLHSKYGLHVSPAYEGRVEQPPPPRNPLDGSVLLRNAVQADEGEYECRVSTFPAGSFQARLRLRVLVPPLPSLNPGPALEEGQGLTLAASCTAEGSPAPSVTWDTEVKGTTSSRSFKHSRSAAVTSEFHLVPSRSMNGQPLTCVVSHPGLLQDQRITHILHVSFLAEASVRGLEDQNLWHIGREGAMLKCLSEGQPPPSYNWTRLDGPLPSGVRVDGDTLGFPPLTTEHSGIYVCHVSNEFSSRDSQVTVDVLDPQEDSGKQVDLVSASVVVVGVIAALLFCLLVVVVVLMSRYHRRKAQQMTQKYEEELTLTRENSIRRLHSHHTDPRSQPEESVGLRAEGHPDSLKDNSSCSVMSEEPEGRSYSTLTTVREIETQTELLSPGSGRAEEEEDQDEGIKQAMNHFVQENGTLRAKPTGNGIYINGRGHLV
CACNA1C: Voltage-dependent L-type calcium channel subunit alpha-1C (CACNA1C, Homo sapiens, UniProt Q13936)
UniProt Q13936, sequence (whole entry, looked up): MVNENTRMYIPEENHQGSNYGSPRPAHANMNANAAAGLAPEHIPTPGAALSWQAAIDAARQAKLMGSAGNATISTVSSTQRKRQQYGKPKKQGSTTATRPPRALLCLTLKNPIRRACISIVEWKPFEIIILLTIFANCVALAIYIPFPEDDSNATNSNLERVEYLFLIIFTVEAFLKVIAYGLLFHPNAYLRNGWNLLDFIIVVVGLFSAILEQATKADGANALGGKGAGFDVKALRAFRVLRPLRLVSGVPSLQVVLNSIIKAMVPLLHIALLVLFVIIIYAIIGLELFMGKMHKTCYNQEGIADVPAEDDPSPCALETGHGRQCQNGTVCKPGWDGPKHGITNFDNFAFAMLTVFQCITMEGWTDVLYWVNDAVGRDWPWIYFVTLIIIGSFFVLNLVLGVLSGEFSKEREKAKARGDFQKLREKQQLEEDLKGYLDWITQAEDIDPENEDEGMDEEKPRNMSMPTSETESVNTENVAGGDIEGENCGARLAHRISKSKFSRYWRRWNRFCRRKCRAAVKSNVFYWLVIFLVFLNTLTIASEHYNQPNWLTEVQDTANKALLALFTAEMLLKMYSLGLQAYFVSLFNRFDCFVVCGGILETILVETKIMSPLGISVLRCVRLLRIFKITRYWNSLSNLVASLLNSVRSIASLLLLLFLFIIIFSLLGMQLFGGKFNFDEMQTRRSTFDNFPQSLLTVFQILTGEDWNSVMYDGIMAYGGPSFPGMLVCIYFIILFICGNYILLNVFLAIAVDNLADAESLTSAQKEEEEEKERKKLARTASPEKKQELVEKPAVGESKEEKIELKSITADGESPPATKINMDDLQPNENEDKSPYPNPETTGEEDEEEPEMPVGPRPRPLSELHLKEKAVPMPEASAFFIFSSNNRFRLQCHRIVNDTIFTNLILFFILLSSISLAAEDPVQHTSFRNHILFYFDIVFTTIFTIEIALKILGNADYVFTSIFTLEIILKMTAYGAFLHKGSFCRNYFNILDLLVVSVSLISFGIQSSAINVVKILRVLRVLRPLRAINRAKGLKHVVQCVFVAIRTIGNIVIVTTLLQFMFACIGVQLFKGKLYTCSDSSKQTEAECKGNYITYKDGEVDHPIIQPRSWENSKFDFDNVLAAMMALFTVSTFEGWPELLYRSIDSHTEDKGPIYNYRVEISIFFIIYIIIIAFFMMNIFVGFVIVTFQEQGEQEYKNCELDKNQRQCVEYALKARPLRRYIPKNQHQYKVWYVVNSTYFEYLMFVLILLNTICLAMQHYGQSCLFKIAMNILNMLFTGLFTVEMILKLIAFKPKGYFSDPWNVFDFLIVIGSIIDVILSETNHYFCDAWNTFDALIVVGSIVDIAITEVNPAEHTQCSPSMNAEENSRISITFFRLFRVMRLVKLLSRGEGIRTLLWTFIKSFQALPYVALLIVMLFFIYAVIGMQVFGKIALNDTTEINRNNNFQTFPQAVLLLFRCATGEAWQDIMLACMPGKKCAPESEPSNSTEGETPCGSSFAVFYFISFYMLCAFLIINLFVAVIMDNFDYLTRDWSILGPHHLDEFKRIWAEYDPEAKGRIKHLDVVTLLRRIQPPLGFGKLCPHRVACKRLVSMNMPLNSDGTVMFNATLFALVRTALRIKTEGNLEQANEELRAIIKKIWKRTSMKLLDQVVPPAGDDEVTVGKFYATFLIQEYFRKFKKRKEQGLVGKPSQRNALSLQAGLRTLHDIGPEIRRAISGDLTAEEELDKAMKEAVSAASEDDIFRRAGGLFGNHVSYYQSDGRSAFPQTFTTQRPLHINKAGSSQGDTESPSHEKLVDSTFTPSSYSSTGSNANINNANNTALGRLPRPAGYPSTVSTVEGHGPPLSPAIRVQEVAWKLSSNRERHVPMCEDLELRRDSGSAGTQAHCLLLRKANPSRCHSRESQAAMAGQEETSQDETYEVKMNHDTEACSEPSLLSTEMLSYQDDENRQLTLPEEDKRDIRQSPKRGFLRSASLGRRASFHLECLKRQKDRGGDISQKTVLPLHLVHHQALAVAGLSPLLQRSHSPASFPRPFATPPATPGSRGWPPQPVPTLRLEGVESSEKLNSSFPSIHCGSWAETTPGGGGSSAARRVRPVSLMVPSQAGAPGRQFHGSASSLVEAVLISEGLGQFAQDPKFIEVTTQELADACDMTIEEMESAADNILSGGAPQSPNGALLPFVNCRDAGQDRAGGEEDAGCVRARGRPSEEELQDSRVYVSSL
SLC47A2: Multidrug and toxin extrusion protein 2 (SLC47A2, Homo sapiens, UniProt Q86VL8)
UniProt Q86VL8, sequence (whole entry, looked up): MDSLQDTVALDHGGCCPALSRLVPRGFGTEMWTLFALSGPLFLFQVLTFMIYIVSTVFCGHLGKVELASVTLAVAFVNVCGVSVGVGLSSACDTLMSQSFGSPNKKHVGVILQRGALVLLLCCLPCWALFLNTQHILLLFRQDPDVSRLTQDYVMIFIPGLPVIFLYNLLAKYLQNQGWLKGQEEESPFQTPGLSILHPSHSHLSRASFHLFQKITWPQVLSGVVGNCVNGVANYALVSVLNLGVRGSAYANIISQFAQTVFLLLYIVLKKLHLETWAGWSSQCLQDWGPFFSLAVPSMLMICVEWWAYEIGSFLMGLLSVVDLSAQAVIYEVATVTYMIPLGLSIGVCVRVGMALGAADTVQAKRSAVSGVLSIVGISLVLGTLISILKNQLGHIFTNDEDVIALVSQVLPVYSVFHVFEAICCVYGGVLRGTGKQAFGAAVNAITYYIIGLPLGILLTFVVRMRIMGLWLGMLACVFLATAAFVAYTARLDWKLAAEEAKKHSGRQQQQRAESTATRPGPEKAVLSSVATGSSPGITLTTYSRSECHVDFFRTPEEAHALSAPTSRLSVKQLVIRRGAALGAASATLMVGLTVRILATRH
SLCO1B3: Solute carrier organic anion transporter family member 1B3 (SLCO1B3, Homo sapiens, UniProt Q9NPD5)
UniProt Q9NPD5, sequence (whole entry, looked up): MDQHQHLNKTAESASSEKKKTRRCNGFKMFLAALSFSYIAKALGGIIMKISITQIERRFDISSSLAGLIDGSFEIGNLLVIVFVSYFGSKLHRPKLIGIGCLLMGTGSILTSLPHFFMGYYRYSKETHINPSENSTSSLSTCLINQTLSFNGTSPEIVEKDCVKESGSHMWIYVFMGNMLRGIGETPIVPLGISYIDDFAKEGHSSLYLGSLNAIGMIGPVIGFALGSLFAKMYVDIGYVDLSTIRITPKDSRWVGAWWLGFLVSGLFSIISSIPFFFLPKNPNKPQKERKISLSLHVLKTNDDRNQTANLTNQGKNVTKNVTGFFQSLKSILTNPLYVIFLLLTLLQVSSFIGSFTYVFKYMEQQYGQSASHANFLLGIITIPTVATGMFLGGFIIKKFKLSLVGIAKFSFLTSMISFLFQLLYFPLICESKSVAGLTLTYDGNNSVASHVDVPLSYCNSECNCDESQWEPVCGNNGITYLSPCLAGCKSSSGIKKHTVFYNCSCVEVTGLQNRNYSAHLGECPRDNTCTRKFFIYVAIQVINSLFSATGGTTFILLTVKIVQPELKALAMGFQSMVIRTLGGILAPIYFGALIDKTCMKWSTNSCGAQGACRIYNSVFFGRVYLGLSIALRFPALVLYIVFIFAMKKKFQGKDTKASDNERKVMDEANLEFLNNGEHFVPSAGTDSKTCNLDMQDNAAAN
UniProt P03372, sequence (whole entry, unmodified, looked up): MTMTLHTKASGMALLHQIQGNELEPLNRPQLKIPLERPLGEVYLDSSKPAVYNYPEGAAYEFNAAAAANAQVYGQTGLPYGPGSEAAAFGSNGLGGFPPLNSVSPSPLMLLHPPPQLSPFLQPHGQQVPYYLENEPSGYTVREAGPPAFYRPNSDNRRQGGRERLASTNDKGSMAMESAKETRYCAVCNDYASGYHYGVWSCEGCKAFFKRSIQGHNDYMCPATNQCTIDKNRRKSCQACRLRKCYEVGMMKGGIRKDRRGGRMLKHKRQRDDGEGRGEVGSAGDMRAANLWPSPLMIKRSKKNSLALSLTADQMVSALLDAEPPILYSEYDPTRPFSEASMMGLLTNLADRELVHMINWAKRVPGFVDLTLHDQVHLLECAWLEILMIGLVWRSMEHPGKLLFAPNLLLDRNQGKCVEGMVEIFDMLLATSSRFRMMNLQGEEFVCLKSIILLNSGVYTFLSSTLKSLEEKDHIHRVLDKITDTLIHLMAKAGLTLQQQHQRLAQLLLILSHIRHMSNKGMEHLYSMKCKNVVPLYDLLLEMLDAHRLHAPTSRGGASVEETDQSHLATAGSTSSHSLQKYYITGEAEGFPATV

CN(C(=O)n1cnc(-c2ccc[n+]([O-])c2)c1)C1CCCCC1
inhibition (CYP2C19 (Homo sapiens, UniProt P33261); enzyme activity, inhibitor; 10 µM, together with: 3-cyano-7-ethoxycoumarin substrate): -6%

CCCC[C@@H]1NC(=O)[C@H](Cc2ccc(O)cc2)NC(=O)[C@@H]2CCCN2C(=O)[C@H](CC(=O)O)NC(=O)[C@H](C)NC(=O)[C@H](Cc2ccccc2)NC(=O)[C@@H]2CSCCC(=O)N3CN(CN(C3)C(=O)CCSC[C@@H](C(=O)N[C@@H](C)C(N)=O)NC1=O)C(=O)CCSC[C@H](NC(=O)[C@H](C)NC(C)=O)C(=O)N[C@@H]([C@@H](C)CC)C(=O)N[C@@H](CCC(=O)O)C(=O)N[C@@H](CCC(=O)O)C(=O)N[C@H](CCCCNC(=O)CCc1cn(CCOCCOCCOCCN(CCOCCOCCOCCC(=O)N[C@H]3CSCCC(=O)N4CN5CN(C4)C(=O)CCSC[C@H](NC(=O)[C@@H](CC(=O)O)NC(=O)[C@H](Cc4cccc6ccccc46)NC(=O)[C@@H]4CCCN4C3=O)C(=O)N[C@@H](CCSC)C(=O)N[C@@H](CCCCNC(=N)N)C(=O)N[C@@H](CC(=O)O)C(=O)N[C@@H](Cc3c[nH]c4ccccc34)C(=O)N[C@@H](CO)C(=O)N[C@@H]([C@@H](C)O)C(=O)N3CCC[C@H]3C(=O)N3C[C@H](O)C[C@H]3C(=O)N[C@@H](Cc3c[nH]c4ccccc34)C(=O)N[C@H](C(N)=O)CSCCC5=O)CCOCCOCCOCCn3cc(CCC(=O)NCCCC[C@H]4NC(=O)[C@H](CCC(=O)O)NC(=O)[C@H](CCC(=O)O)NC(=O)[C@H]([C@@H](C)CC)NC(=O)[C@@H](NC(=O)[C@H](C)NC(C)=O)CSCCC(=O)N5CN6CN(C5)C(=O)CCSC[C@H](NC(=O)[C@H](Cc5ccc(O)cc5)NC(=O)[C@H](CCC(N)=O)NC4=O)C(=O)N[C@@H](Cc4ccccc4)C(=O)N[C@@H](C)C(=O)N[C@@H](CC(=O)O)C(=O)N4CCC[C@H]4C(=O)N[C@@H](Cc4ccc(O)cc4)C(=O)N[C@@H](CCCC)C(=O)N[C@H](C(=O)N[C@@H](C)C(N)=O)CSCCC6=O)nn3)nn1)C(=O)N[C@@H](CCC(N)=O)C(=O)N[C@@H](Cc1ccc(O)cc1)C(=O)N2
Emax (Tumor necrosis factor receptor superfamily member 9/Nectin-4; reporter gene, agonist, luciferase reporter; CD137 Jurkat reporter with HT-1376; 6 h, geometric mean; relative to: wells without compound): 46 fold

CC1(C)[C@H](C(=O)O[C@H](C#N)c2cccc(Oc3ccccc3)c2)[C@@H]1C=C(Br)Br
enzyme contribution (CES2 human cytosolic; 0.1 µM, age 6 months): 0.38%

O=C(NCCN1CCCC1)c1cc(-c2ccc(CN3CCOCC3)cc2)nc2ccc(F)cc12
inhibition (CACNA1C; calcium influx, inhibitor, fluorescence calcium; 100 µM (highest tested)): no inhibition

CC1(C)[C@H](C(=O)OCc2cccc(Oc3ccccc3)c2)[C@@H]1C=C(Cl)Cl
enzyme contribution (CES2 human cytosolic; 0.1 µM, age 5 years): 5.57%

CCN(CC)CCCC(C)Nc1ccnc2cc(Cl)ccc12 (stereo not drawn)
inhibition (SLC47A2; transport, inhibitor; transiently transfected cells; 100 µM, 10 (unit not given), together with: thiamine): 126%

COC(=O)c1cc(O)c(O)c(O)c1
aglycone concentration increase (β-glucuronidase Helix pomatia; concentration not given, 6 h, pH 7.4, glucuronide hydrolysis; relative to: untreated control): ≥ 1.25 fold

CCCCc1nc(Cl)c(CO)n1Cc1ccc(-c2ccccc2-c2nn[nH]n2)cc1
inhibition (SLC47A2; transport, inhibitor; transiently transfected cells; 100 µM, 10 (unit not given), together with: thiamine): 28.5%

CC(C)CC(=O)OC[C@H]1O[C@@](C#N)(c2ccc3c(N)ncnn23)[C@H](O)[C@@H]1O
recovery A to B (ABCB1 (Homo sapiens, UniProt P08183); Caco-2; 0.9 µM, 2 h): < 39.2%

NC(=O)c1nc(F)c[nH]c1=O
inhibition (SLC47A2; transport, inhibitor; transiently transfected cells; 100 µM, 10 (unit not given), together with: thiamine): 24.8%

CCCC[C@@H]1NC(=O)[C@H](Cc2ccc(O)cc2)NC(=O)[C@@H]2CCCN2C(=O)[C@H](CC(=O)O)NC(=O)[C@H](C)NC(=O)[C@H](Cc2ccccc2)NC(=O)[C@@H]2CSCCC(=O)N3CN(CN(C3)C(=O)CCSC[C@H](NC(C)=O)C(=O)N[C@@H](CC(C)(C)C)C(=O)N3CCC[C@H]3C(=O)N[C@@H](CCC(=O)O)C(=O)N[C@H](CCCCNC(=O)CCc3cn(CCOCCOCCOCCOCCOCCC(=O)N[C@H]4CSCCC(=O)N5CN6CN(C5)C(=O)CCSC[C@H](NC(=O)[C@@H](CC(=O)O)NC(=O)[C@H](Cc5cccc7ccccc57)NC(=O)[C@@H]5CCCN5C4=O)C(=O)N[C@@H](CCSC)C(=O)N[C@@H](CCCCNC(=N)N)C(=O)N[C@@H](CC(=O)O)C(=O)N[C@@H](Cc4c[nH]c5ccccc45)C(=O)N[C@@H](CO)C(=O)N[C@@H]([C@@H](C)O)C(=O)N4CCC[C@H]4C(=O)N4C[C@H](O)C[C@H]4C(=O)N[C@@H](Cc4c[nH]c5ccccc45)C(=O)N[C@H](C(N)=O)CSCCC6=O)nn3)C(=O)N3CCC[C@H]3C(=O)N[C@@H](Cc3ccc(O)cc3)C(=O)N2)C(=O)CCSCCNC1=O
Emax (Tumor necrosis factor receptor superfamily member 9/Nectin-4; reporter gene, agonist, luciferase reporter; CD137 Jurkat reporter with HT-1376; 6 h, geometric mean; relative to: wells without compound): 37 fold

Cn1nccc1[C@]1(CNC(=O)c2ccc(F)c(F)c2-c2ccc(C(F)(F)F)cc2)NC(=O)NC1=O
highest concentration without inhibition (CACNA1C; inhibitor; human cells): > 10 µM

CCCC[C@@H]1NC(=O)[C@H](Cc2ccc(O)cc2)NC(=O)[C@@H]2CCCN2C(=O)[C@H](CC(=O)O)NC(=O)[C@H](C)NC(=O)[C@H](Cc2ccccc2)NC(=O)[C@@H]2CSCCC(=O)N3CN(CN(C3)C(=O)CCSC[C@@H](C(=O)N[C@@H](C)C(N)=O)NC1=O)C(=O)CCSC[C@H](NC(C)=O)C(=O)N[C@@H](CC(C)(C)C)C(=O)N1CCC[C@H]1C(=O)N[C@@H](CCC(=O)O)C(=O)N[C@H](CCCCNC(=O)CCc1cn(CCOCCOCCOCCOCCOCCC(=O)NCCCC[C@H]3NC(=O)[C@H](Cc4cccc5ccccc45)NC(=O)[C@@H]4CCCN4C(=O)[C@@H](NC(C)=O)CSCCC(=O)N4CN5CN(C4)C(=O)CCSC[C@H](NC3=O)C(=O)N[C@@H](CCSC)C(=O)N[C@@H](CCCCNC(=N)N)C(=O)N[C@@H](Cc3c[nH]cn3)C(=O)N[C@@H](Cc3c[nH]c4ccccc34)C(=O)N[C@@H](CO)C(=O)N[C@@H]([C@@H](C)O)C(=O)N3CCC[C@H]3C(=O)N3C[C@H](O)C[C@H]3C(=O)N[C@@H](Cc3c[nH]c4ccccc34)C(=O)N[C@H](C(N)=O)CSCCC5=O)nn1)C(=O)N1CCC[C@H]1C(=O)N[C@@H](Cc1ccc(O)cc1)C(=O)N2
Emax (Tumor necrosis factor receptor superfamily member 9/Nectin-4; reporter gene, agonist, luciferase reporter; CD137 Jurkat reporter with HT-1376; 6 h, geometric mean; relative to: wells without compound): 39 fold

O=C(O)C(F)(F)C(F)(F)C(F)(F)C(F)(F)C(F)(F)C(F)(F)C(F)(F)F
CLint (SLCO1B3; uptake, substrate; CHO cells stably expressing SLCO1B3, HBSS with HEPES; pH 7.4): 29.4 ± 11.4 µL/min/mg

COc1cc2nc(N3CCN(C(=O)c4ccco4)CC3)nc(N)c2cc1OC
inhibition (SLCO1B3; transport, inhibitor; transiently transfected cells; 100 µM, 10 (unit not given), together with: CCK-8): 82.8%

CCC(C)(c1ccc(O)cc1)c1ccc(O)cc1
ΔS (Estrogen receptor (ESR1, Homo sapiens, UniProt P03372); ITC; 25 °C): -27.2 cal/mol/K

CCCC[C@@H]1NC(=O)[C@H](Cc2ccc(O)cc2)NC(=O)[C@@H]2CCCN2C(=O)[C@H](CC(=O)O)NC(=O)[C@H](C)NC(=O)[C@H](Cc2ccccc2)NC(=O)[C@@H]2CSCCC(=O)N3CN(CN(C3)C(=O)CCSC[C@H](NC(C)=O)C(=O)N[C@@H](CC(C)(C)C)C(=O)N[C@@H](CCC(=O)O)C(=O)N[C@@H](CCC(=O)O)C(=O)N[C@H](CCCCNC(=O)CCc3cn(CCOCCOCCOCCN(CCOCCOCCOCCC(=O)N[C@H]4CSCCC(=O)N5CN6CN(C5)C(=O)CCSC[C@H](NC(=O)[C@@H](CC(=O)O)NC(=O)[C@H](Cc5cccc7ccccc57)NC(=O)[C@@H]5CCCN5C4=O)C(=O)N[C@@H](CCSC)C(=O)N[C@@H](CCCCNC(=N)N)C(=O)N[C@@H](CC(=O)O)C(=O)N[C@@H](Cc4c[nH]c5ccccc45)C(=O)N[C@@H](CO)C(=O)N[C@@H]([C@@H](C)O)C(=O)N4CCC[C@H]4C(=O)N4C[C@H](O)C[C@H]4C(=O)N[C@@H](Cc4c[nH]c5ccccc45)C(=O)N[C@H](C(N)=O)CSCCC6=O)CCOCCOCCOCCn4cc(CCC(=O)NCCCC[C@H]5NC(=O)[C@H](CCC(=O)O)NC(=O)[C@H](CCC(=O)O)NC(=O)[C@H](CC(C)(C)C)NC(=O)[C@@H](NC(C)=O)CSCCC(=O)N6CN7CN(C6)C(=O)CCSC[C@H](NC(=O)[C@H](Cc6ccc(O)cc6)NC(=O)[C@@H]6CCCN6C5=O)C(=O)N[C@@H](Cc5ccccc5)C(=O)N[C@@H](C)C(=O)N[C@@H](CC(=O)O)C(=O)N5CCC[C@H]5C(=O)N[C@@H](Cc5ccc(O)cc5)C(=O)N[C@@H](CCCC)C(=O)N[C@H](C(N)=O)CSCCC7=O)nn4)nn3)C(=O)N3CCC[C@H]3C(=O)N[C@@H](Cc3ccc(O)cc3)C(=O)N2)C(=O)CCSC[C@@H](C(N)=O)NC1=O
Emax (Tumor necrosis factor receptor superfamily member 9/Nectin-4; reporter gene, agonist, luciferase reporter; CD137 Jurkat reporter with HT-1376; 6 h, geometric mean; relative to: wells without compound): 63 fold

COc1cc2c(c(OC)c1OC)-c1ccc(OC)c(=O)cc1[C@@H](NC(C)=O)CC2
inhibition (ABCG2 (Homo sapiens, UniProt Q9UNQ0); transport, inhibitor; 100 µM, 5 (unit not given), pH 7, together with: CCK-8): 23.8%

Some of these lines once more:
CC1(C)[C@H](C(=O)OCc2cccc(Oc3ccccc3)c2)[C@@H]1C=C(Cl)Cl
enzyme contribution (CES2 human cytosolic; 0.1 µM, age 5 years): 5.57%

CC1(C)[C@H](C(=O)O[C@H](C#N)c2cccc(Oc3ccccc3)c2)[C@@H]1C=C(Br)Br
enzyme contribution (CES2 human cytosolic; 0.1 µM, age 6 months): 0.38%
